Assay results of several laboratories.
Numbered parts are unrelated; each lists some results of a single study. Changes are numbered by the printed parent chain.

Block 1
Target: RNA binding protein fox-1 homolog 2, RRM domain, GST-SBP tag (RBFOX2, Homo sapiens, UniProt O43251-10, residues 100-194)
Technique: RNA Bind-n-Seq
Form: RNA
Matrix: in vitro
Tested at: 365 nM
Setting: natural RNA segment, single round, ends assumed
Relative to: no-protein control
Reading: higher = stronger binding
Constant ends, left off below: GGGAGUUCUACAGUCCGACGAUC … UGGAAUUCUCGGGUGCCAA
Target sequence (chain): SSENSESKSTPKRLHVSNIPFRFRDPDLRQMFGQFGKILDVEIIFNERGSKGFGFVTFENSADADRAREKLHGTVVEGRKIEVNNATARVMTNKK
`UUUAUGCCUUUGCGGGUUUCUUGAUGUGUUCGCAGUGUCACCCCAGAGUCAGAACUGUACACAUCCCAAAAUUUGGUGGCCGUGGAACACAUUCCCGGUGAUAGAAUUGC` — result for “RBNS enrichment (R)”: 0.252.
`UCUGUUCUCACAGCCUCUGAGAUGUCUCAGGUGAGAGCCAUGGGGUGGAACCAUAAAGUCCCCAUCUCAAAGUGUGCCUGUGGGACAGGGUUAGUAGCUACUCCCCGAGG`: “RBNS enrichment (R)” 0.437.
For `AAGUAAACGUGGAGUUGAUUUCUCUACUAAAUAACAGAAACCUCAGUUUUUCACUCCCAUUGUAAGUAACUUUUAUUUAAGUAAGUAAAAUCAGGUAGGAAAUCACCUUU`, “RBNS enrichment (R)” read 0.437.
For `CAUACACAGAAGAUAGAAAAAUCUAGCAAAACUUCUCUUUCUGUAAGCCAGAGUCUUGUCUAUCAGAUUCCCACAACCACUCCUGAUUCUAAAUUUAGUGAUAUGGUAAU`, “RBNS enrichment (R)” read 0.561.
`UGUAGGACUGCAGUUCUGAAUUUUGGGUUAAAGGUUUUGGCUGCUGUAAGAAUGUGAAUUUGAAUGUAUUUUGAAUUGUAAGAGCAAAAGAACGUUUUUGUACAAUUUUU` — result for “RBNS enrichment (R)”: 7.62.
`AGUCCACCCCCUAGACAGCAAUGCCCUCUGGACUUGAUCCUGAGCCUAAUAAACCUGUGUGCACUCCUUUAGGUCCCAGCACUUUCUUCCUAUGGGUGGUCCAGACAAAA` — result for “RBNS enrichment (R)”: 0.425.
`CAUGGGUGUUUGAUUUCAGAAAUCAGUAUCUGGUGAGAUUUUUGUCUCAAAACUACCAUUUGAAUUUCAAGAACUCUGCUGCAAAACCACUCUGAGAAUGUUUCCAAGUG`: “RBNS enrichment (R)” 1.37.
`UUUGAGACGGAGUCUUGCUCUGUCGCCAGGCUGGAGUGUAGUGGCGCAAUCCCGGCUCACUGCAACCUCUGCCUCCCGGGUUCAAGCGAUUCUCCUGCCUCAGCCUCCCA`: “RBNS enrichment (R)” 0.271.

Block 2
Target: RING finger protein unkempt homolog, zinc fingers 1-6, GST-SBP tag (UNK, Homo sapiens, UniProt Q9C0B0, residues 30-357)
Chain of UniProt Q9C0B0 (30-357, looked up): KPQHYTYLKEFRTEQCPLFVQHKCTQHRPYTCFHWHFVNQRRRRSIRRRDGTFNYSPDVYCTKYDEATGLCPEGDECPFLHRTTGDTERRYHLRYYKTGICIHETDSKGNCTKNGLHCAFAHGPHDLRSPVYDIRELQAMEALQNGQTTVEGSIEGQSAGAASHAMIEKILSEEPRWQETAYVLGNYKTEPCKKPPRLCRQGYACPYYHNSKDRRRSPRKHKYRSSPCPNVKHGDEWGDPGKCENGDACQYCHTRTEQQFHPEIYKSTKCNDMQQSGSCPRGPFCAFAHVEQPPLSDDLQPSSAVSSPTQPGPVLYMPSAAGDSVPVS
Technique: RNA Bind-n-Seq
Form: RNA
Matrix: in vitro
Tested at: not given
Setting: RNA with constant flanks, ends assumed
Relative to: input RNA pool
Reading: higher = stronger binding
`GGGAGUUCUACAGUCCGACGAUCAUUGAGUGGGGAGCUUGUGCACUUGUUCUCACAGGAAACACAGUCAUCUUUGCAACUAUACCCGGCUUUUUCUUGGUCUUUGGAAGCAAUGACGACUUCAGCUGGCAGCAGUGGUGAAAACAACAGAGGAUUGAGCAUCA` gave a bound/input enrichment of 0.29 ratio.
For `GGGAGUUCUACAGUCCGACGAUCGACGAUGAAACAGUUGAUAGCUUAGGCCCCCUGGAAAAAGGACAAGUGAAAAAUGAGGCGCUCCGAGAAUUGAGAGUGGAGCUCAGCAAAAAACACCAAGCUCGAGAACUUGAUGGAUUUCAACAGAGGAUUGAGCAUCA`, the bound/input enrichment was 0.148 ratio.
The bound/input enrichment of `GGGAGUUCUACAGUCCGACGAUCCCCAACCCCUGAGGCCUACAUCCAUCGAGCUGGCAGGACAGCACGCGCUAACAACCCAGGCACCGUCUUAACCUUUGUGCUUCCCACGGAGCAGUUCCACUUAGGCAAGAUUGAGGAGCUCAACAGAGGAUUGAGCAUCA` is reported as 0.256 ratio.
`GGGAGUUCUACAGUCCGACGAUCGUACAGACUGCCUCAAAACAGGUUGAUGGUGAUUACGUCGUGUCUGAAUGGAGUGAGAUUACCGAAUUCUGUACAGCAGAUUACUCCAAAGUUCAUCUAACACAGCUGCUGGAGAAGGCUCAACAGAGGAUUGAGCAUCA` gave a bound/input enrichment of 0.238 ratio.

Block 3
Target: Histone acetyltransferase KAT6A, both winged helices, GST fusion (KAT6A, Homo sapiens, UniProt Q92794, residues 1-181)
Technique: protein binding microarray
Form: double-stranded DNA, one strand shown
Matrix: in vitro
Tested at: not given
Setting: 8-mer, flanks averaged, mean of 2 arrays, mostly near background
Relative to: not given
Reading: higher = stronger binding
Residues (chain): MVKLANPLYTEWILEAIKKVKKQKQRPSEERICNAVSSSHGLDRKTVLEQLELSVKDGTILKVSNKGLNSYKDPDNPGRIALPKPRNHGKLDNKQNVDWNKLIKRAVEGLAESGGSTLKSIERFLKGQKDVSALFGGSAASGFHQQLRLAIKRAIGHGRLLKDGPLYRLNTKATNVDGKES
With `AAAGCGCC` the E-score was 0.178.
The E-score of `TAATCCCA` is reported as -0.0893.
The E-score of `AAGACCTA` is reported as -0.0554.
`CGGCGTCC` has an E-score of 0.27.
The E-score of `CGCTCCGC` is reported as 0.264.
`TAATGATA` gave an E-score of 0.0237.
`CTCGGTGA` gave an E-score of -0.0241.
`CTTTTAGA` has an E-score of 0.0379.
`CCCCTGAC` has an E-score of -0.0924.
`GTTACAGA` has an E-score of -0.129.
With `GTGCGATA` the E-score was 0.0272.
The E-score of `AGTTCGAA` is reported as -0.0201.
The E-score of `CCGTGGCA` is reported as 0.17.
`CAGGATGC` has an E-score of -0.102.
For `CATATCCA`, the E-score was -0.11.

Block 4
Target: CCNE2, cyclin fold, Cln2 fusion (human)
Technique: yeast growth competition, sequencing
Matrix: yeast
Setting: strong parent motif
Relative to: not given
Reading: higher = stronger binding
Parent: CDC25A docking peptide (human); PPHRRRLLFACSP; partner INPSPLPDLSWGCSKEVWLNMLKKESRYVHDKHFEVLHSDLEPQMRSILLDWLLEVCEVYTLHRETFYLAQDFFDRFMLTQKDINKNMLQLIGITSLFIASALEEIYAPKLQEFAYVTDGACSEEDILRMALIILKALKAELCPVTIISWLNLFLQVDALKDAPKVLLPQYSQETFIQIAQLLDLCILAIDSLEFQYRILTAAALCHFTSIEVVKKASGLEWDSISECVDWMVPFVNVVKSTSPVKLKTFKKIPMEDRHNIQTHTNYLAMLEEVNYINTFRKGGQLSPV
`PPHRRRLVFACSP [L8V]`: “normalised enrichment score” 3.29.
`PPHRRLLLFACSP [R6L]` — result for “normalised enrichment score”: 0.956.
For `KPHRRRLLFACSP [P1K]`, “normalised enrichment score” read 2.31.
`PPHRRMLLFACSP [R6M]`: “normalised enrichment score” 1.63.
`PMHRRRLLFACSP [P2M]` — result for “normalised enrichment score”: 1.54.
`PPHYRRLLFACSP [R4Y]` — result for “normalised enrichment score”: 0.969.
`PLHRRRLLFACSP [P2L]`: “normalised enrichment score” 0.634.
`QPHRRRLLFACSP [P1Q]` — result for “normalised enrichment score”: 1.94.
`PPHRRRLLFACPP [S12P]`: “normalised enrichment score” 2.03.
`PPHRRRLLFACSE [P13E]` — result for “normalised enrichment score”: 2.44.
For `PPMRRRLLFACSP [H3M]`, “normalised enrichment score” read 0.941.
`PPHRRRLLFACST [P13T]`: “normalised enrichment score” 2.52.
Under “normalised enrichment score”, `PPHRERLLFACSP [R5E]` is recorded as -0.082.

Block 5
Target: Fragile X messenger ribonucleoprotein 1, C-terminal low-complexity region (Fmr1, Mus musculus, UniProt P35922)
Technique: RNA Bind-n-Seq
Form: RNA
Matrix: in vitro
Tested at: 200 nM
Setting: whole 134-nt RNA, ends assumed
With: 150 mM LiCl
Relative to: input library
Reading: higher = stronger binding
Each molecule: 7-deaza-guanosine replaces G
Constant ends, left off below: GGGAGUUCUACAGUCCGACGAUC … UGGAAUUCUCGGGUGUCAAGG
For `GAAAUUAUGGAAGUGGAAAUUACAAUGAUUUUGGAAAUUAUAACCAGCAACCUUCUAACUACGGUCCAAUGAAGAGUGGAAACUUUGGUG`, the log2 enrichment was -2.62.
With `AAUAACUGACGCUGCAUUUAAUUUUUUUGCCAGUUUAAAAUGUUUGUGUGUUUUUAUAGAUGAUUUUAACUGGUACAUAUUUUGAGUUAA` the log2 enrichment was -3.36.
`CUCAAGUCCUGUGCUACACAUCGUAUGUACCGAAUCGGGUGGGGUGGGUGGGGAAAGUAUUAUGUUACGCCGUUCGGAUCUGCACUUCCA` has a log2 enrichment of 0.468.
`CCUGUGCUACACAUCGUAUGUACCGAAUCGGGGAAAGGGGAAAAAGGGGUUUUUUUGGGGAAAGUAUUAUGUUACGCCGUUCGGAUCUGC` has a log2 enrichment of -0.55.
The log2 enrichment of `UUCCUCAAGUCCUGUGCUACACAUCGUAUGUACCGAAUCGGAGGUGGAGGAAAGUAUUAUGUUACGCCGUUCGGAUCUGCACUUCCAGCA` is reported as -2.31.
`CCUCAAGUCCUGUGCUACACAUCGUAUGUACCGAAUCGGGCCGGCCGGCCGGGAAAGUAUUAUGUUACGCCGUUCGGAUCUGCACUUCCA` has a log2 enrichment of 0.755.
